Experimental data from different studies.
Numbered parts are unrelated; each lists some results of a single study. Positions count from the first letter of the parent shown.

Study 1
Target: Histone acetyltransferase KAT6A, both winged helices, GST fusion (KAT6A, Homo sapiens, UniProt Q92794, residues 1-181)
Method: protein binding microarray
Molecule type: double-stranded DNA, one strand shown
Matrix: in vitro
Concentration: not given
Notes: 8-mer, flanks averaged, mean of 2 arrays, mostly near background
Baseline: not given
Direction: higher = stronger binding
Measurement: E-score
Construct (chain): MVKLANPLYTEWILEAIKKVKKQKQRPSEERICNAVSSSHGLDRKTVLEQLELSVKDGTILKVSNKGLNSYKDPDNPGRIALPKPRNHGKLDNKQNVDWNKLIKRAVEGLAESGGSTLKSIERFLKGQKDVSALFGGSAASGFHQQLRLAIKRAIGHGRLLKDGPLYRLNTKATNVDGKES
CCAACTCA: -0.205
TGCCAACA: -0.219
GACTAGGC: -0.107
CATATGAA: -0.112
ACTAAATC: -0.0701
ACTTTGGG: -0.16
GCCTAGGA: -0.191
CTCTATGA: -0.0838
ACGTGACT: 0.0205
AACTCTCT: -0.227
ATTTCAGA: -0.0461
AAAGGTAA: -0.246
ACGAAAGG: -0.0665

Study 2
Target: CCNB1, cyclin fold, Cln2 fusion (human)
Method: yeast growth competition, sequencing
Matrix: yeast
Notes: strong parent motif
Baseline: not given
Direction: higher = stronger binding
Measurement: normalised enrichment score
Starting sequence: PKMYT1 docking peptide (human); SFEPRNLLSLFED
R5P: -0.28
F11I: 0.777
L10K: -0.259
F11H: 0.0364
R5G: 0.573
S9M: 0.399
S9E: 1.3
F2Y: -0.204
S1Y: 1.02
L10E: 2.06
L8Q: 0.0739
F2T: 0.835
P4S: -0.048
N6S: 1.47
S1V: 1.68
L7G: -0.218

Study 3
Target: Ras GTPase-activating protein-binding protein 1, C-terminal RGG region (G3BP1, Homo sapiens, UniProt Q13283)
UniProt Q13283, sequence (whole entry, looked up): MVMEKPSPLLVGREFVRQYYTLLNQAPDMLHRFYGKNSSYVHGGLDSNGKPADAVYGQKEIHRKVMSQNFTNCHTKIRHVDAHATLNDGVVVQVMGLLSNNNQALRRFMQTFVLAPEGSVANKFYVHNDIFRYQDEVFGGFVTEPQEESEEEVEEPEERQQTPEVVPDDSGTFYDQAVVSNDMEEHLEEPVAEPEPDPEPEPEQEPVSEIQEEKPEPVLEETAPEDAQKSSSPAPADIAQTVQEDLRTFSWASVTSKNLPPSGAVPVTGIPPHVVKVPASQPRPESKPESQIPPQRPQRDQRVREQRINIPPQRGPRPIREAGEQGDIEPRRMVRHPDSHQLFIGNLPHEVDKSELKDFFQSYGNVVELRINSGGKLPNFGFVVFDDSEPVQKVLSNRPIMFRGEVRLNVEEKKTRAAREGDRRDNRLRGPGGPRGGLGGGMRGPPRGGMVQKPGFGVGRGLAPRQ
Method: RNA Bind-n-Seq
Molecule type: RNA
Matrix: in vitro
Concentration: 1 µM
Notes: whole 134-nt RNA, ends assumed
With: 150 mM KCl
Baseline: input library
Direction: higher = stronger binding
Measurement: log2 enrichment
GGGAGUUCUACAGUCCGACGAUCAGUCCUGUGCUACACAUCGUAUGUACCGAAUCGGGAAAAAAAGGGUUUUUGGGAGGGAAAGUAUUAUGUUACGCCGUUCGGAUCUGCACUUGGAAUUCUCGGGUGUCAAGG: 0.302
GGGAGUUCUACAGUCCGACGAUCAGUCCUGUGCUACACAUCGUAUGUACCGAAUCAAACCCAAAUUUUUUUAAACCCAAAAAAGUAUUAUGUUACGCCGUUCGGAUCUGCACUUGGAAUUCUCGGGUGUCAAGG: -1.05
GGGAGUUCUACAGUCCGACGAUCUCCUGUGCUACACAUCGUAUGUACCGAAUCGGCCCCCCCGGCCCCCCCGGCCCCCCCGGGAAAGUAUUAUGUUACGCCGUUCGGAUCUGCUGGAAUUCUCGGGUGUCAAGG: -1.51
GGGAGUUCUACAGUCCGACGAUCACCAUGCAGGUGGGCAUCUUUGGGAAGUGGGGCAAAAAGGGGAUAGGGAGGGGGGUAACACUUUGGGAACAGGUGGUCCCAGGUCGUUUCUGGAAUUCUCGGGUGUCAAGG: -0.928
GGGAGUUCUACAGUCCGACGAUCUCCUCAAGUCCUGUGCUACACAUCGUAUGUACCGAAUCGGGGAGGAGGAGGGAAAGUAUUAUGUUACGCCGUUCGGAUCUGCACUUCCAGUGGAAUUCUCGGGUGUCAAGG: -0.502
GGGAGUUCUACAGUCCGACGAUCUUGGGCUGCCCAUCACCGUGGCCCAUGUGGAUGGCCAAACCCACAUGUUAUUUGGCUCUGACCGGAUGGAGCUGCUGGCGCACCUGCUGGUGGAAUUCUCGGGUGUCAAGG: -1.54
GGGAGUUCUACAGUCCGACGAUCUCAAGUCCUGUGCUACACAUCGUAUGUACCGAAUCGGGUUGGGGUUGGGUUGGGAAAGUAUUAUGUUACGCCGUUCGGAUCUGCACUUCCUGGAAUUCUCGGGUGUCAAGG: 2.14
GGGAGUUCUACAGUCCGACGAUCGCAGGAAUUAAAAACAAAUGGAAAUGCUUCGGAUAGUGGCAGGGGUGGGGGUUGCUAAGGAAAGGGUGGGAUGGGAGUGGGUAAAGAGUUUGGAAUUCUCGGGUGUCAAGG: 1.97
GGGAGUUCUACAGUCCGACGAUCCAAGUCCUGUGCUACACAUCGUAUGUACCGAAUCGGAAAAAAAGGUGGAAAAAGGAAAGUAUUAUGUUACGCCGUUCGGAUCUGCACUUCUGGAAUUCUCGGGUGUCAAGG: -1.71
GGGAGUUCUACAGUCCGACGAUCAGUCCUGUGCUACACAUCGUAUGUACCGAAUCGGGGCCCCGGCCCCGGGGCCCCGGGGAAAGUAUUAUGUUACGCCGUUCGGAUCUGCACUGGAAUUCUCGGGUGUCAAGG: -2.53
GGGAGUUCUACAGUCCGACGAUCGCAGGAAGUAAAAACAAAUGGAAAUGCUUCGGAUAGUGGCAGGGGUGGGGGUUGCUAAGGAAAGGGUGGGAUGGGAGUGGGUAAAGAAUUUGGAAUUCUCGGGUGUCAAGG: 0.937
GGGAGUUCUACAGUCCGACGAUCGUCCUGUGCUACACAUCGUAUGUACCGAAUCGGGGAAAAAGGGGAAAGGGGUUUGGGGAAAGUAUUAUGUUACGCCGUUCGGAUCUGCACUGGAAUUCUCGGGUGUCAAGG: 2.64
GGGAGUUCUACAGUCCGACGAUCAGUCCUGUGCUACACAUCGUAUGUACCGAAUCGGGGAAAAGGGGAAAAGGGGAAAAGGAAAGUAUUAUGUUACGCCGUUCGGAUCUGCACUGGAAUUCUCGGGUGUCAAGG: -0.667

Mixed results
PhoQ, residues 284 288 289 292 302 303 SSTLSG — fold induction (PhoP, residues 12 14 15 18 19 NMSSL (Escherichia coli, UniProt P23836); Sort-seq, refers to: YFP reporter; E. coli; PhoQ-PhoP variant library, with: 10 µM Mg2+; baseline: high Mg2+ state, higher = stronger signaling): 3.98

For quick reference, copied from above (study 1):
GCCTAGGA: -0.191
CTCTATGA: -0.0838
ACGTGACT: 0.0205
AACTCTCT: -0.227
